Measurements gathered from unrelated publications.
Parts stem from different laboratories: compare values within a part only. Several values in a cell are separate wells, animals, samples, runs or records.
Chain of UniProt P10721 (whole entry, unmodified, looked up): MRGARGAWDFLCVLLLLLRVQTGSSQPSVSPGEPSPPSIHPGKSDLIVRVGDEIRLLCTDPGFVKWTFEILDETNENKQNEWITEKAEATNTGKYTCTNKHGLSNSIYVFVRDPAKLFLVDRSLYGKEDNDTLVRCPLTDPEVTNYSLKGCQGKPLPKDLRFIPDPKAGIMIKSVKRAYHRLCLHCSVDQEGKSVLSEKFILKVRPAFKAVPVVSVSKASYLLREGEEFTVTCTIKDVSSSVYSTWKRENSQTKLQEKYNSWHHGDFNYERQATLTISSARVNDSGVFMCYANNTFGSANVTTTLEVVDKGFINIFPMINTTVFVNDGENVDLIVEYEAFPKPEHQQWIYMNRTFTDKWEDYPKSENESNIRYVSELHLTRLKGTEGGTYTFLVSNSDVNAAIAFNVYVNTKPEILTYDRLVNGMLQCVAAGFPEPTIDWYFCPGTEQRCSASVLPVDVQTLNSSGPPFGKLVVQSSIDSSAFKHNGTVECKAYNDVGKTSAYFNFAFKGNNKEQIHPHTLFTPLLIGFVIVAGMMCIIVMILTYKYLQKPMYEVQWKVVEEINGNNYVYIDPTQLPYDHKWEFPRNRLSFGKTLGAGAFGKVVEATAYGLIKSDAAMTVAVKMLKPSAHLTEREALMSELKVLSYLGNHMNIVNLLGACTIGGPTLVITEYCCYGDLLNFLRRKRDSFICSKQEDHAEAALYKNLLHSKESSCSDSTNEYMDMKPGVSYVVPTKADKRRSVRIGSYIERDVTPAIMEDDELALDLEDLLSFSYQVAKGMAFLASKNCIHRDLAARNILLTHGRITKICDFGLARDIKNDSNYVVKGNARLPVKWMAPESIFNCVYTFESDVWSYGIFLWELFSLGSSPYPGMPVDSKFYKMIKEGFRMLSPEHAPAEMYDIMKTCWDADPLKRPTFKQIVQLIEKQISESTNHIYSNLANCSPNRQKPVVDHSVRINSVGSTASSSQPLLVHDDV
Chain of UniProt P43250 (whole entry, looked up): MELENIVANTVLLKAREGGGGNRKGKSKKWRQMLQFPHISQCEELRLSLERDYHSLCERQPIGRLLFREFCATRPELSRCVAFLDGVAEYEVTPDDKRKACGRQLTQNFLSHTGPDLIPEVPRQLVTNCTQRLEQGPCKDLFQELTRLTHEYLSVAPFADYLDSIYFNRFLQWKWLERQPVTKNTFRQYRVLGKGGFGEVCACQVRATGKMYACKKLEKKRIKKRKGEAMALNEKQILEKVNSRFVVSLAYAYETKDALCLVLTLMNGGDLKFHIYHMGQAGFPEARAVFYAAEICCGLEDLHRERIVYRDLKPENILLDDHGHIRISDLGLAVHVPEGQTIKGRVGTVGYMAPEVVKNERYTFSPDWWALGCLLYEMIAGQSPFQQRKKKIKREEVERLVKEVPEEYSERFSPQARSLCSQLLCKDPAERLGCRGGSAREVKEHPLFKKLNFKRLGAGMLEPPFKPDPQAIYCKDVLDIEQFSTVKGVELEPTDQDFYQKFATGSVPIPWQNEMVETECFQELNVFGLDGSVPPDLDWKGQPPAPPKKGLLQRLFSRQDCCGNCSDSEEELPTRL
Chain of UniProt P36896 (whole entry, looked up): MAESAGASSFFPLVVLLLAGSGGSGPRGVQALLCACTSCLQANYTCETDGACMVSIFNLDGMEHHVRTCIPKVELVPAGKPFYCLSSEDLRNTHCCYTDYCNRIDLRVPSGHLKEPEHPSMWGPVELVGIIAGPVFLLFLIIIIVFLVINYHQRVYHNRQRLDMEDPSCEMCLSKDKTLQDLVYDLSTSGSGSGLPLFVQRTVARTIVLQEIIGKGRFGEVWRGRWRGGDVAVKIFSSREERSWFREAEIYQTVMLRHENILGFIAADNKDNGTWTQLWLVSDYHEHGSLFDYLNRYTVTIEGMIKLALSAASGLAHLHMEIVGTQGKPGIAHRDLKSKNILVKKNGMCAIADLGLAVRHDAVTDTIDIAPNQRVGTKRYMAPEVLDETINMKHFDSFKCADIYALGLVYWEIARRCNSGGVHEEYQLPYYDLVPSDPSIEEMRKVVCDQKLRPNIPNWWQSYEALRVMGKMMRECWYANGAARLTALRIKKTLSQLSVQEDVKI
Chain of UniProt P49841 (whole entry, looked up): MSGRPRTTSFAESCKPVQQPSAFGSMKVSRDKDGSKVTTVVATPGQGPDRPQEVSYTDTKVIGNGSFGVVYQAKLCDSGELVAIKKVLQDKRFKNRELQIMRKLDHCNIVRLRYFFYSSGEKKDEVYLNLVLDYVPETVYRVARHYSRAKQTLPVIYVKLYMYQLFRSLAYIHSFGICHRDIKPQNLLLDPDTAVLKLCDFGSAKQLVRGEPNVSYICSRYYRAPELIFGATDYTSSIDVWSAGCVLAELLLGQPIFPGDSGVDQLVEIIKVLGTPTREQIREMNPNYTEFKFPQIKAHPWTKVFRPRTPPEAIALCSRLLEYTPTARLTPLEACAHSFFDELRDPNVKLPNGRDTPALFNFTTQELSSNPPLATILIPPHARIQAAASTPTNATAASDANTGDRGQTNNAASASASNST
Chain of UniProt P23443 (whole entry, looked up): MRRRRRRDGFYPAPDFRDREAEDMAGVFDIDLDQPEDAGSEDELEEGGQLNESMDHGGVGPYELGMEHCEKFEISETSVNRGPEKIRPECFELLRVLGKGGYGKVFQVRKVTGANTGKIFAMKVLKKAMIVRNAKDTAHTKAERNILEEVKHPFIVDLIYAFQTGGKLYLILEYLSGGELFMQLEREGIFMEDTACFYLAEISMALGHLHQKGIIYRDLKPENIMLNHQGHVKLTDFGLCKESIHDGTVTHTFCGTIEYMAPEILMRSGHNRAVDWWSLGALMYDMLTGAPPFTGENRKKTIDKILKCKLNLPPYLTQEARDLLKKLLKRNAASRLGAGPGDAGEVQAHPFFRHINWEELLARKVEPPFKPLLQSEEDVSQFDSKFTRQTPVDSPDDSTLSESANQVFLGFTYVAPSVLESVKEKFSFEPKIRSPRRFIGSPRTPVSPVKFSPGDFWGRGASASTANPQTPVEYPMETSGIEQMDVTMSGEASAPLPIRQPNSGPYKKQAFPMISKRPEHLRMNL
Chain of UniProt Q15418 (whole entry, looked up): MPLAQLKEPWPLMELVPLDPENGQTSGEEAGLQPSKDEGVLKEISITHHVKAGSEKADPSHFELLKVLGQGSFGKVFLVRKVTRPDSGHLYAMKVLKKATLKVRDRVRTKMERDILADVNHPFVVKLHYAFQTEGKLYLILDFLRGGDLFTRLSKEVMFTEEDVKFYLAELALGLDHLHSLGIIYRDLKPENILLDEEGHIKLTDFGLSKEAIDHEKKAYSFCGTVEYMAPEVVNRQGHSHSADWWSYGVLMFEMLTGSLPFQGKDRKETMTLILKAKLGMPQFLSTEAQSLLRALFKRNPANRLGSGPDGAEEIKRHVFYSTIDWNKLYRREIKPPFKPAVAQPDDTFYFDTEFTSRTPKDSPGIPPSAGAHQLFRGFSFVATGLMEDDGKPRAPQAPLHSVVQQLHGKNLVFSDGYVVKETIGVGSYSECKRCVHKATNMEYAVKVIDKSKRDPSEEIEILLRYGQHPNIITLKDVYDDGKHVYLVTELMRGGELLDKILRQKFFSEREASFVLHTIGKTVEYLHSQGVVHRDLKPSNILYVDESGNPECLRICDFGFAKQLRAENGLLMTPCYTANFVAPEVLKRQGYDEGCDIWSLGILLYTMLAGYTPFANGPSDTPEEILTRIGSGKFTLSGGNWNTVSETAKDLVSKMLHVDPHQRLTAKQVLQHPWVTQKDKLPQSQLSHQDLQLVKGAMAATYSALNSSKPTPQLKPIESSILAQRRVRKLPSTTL
Chain of UniProt O60285 (whole entry, looked up): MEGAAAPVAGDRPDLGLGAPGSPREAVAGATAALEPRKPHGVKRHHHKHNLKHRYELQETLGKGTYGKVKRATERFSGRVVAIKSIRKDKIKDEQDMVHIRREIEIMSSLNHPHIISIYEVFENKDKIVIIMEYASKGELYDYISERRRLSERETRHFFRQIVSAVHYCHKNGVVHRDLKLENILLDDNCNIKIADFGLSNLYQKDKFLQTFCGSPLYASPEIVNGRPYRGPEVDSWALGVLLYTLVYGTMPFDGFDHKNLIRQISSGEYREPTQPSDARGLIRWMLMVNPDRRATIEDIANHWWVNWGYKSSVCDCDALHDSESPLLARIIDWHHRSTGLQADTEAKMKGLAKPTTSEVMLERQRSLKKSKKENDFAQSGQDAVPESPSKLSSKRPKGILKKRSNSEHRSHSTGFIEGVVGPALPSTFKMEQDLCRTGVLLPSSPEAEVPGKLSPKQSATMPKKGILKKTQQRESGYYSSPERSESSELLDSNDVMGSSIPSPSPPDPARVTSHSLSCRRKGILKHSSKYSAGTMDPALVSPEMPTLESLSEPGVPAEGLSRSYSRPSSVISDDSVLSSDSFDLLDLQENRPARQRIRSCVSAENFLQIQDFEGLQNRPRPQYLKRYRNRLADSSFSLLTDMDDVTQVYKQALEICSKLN
Chain of UniProt P51817 (whole entry, looked up): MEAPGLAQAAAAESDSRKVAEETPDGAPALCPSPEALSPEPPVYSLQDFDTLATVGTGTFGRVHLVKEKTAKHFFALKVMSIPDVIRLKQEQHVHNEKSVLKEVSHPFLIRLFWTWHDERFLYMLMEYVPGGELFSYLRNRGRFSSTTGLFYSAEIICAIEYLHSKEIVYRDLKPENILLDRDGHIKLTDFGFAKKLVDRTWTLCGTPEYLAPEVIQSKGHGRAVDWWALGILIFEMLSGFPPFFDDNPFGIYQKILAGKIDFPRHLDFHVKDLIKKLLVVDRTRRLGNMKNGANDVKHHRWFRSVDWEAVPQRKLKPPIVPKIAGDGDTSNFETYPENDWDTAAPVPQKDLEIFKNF

Study 1
Host: human
Matrix: microsomes or S9
Concentration: 2 µM
Time: 0.5 h
Measurement: remaining compound
CCOC(=O)Cn1c2c(c(=N)c3c1CCC3)CCC2: 91.8%
COc1ccc(C2N(C(C)=O)c3ccccc3N2S(=O)(=O)c2ccc(C)cc2)cc1 (centres unmarked): 0%
Cc1cccc(CN(CCN2CCOCC2)CC(O)COc2ccc(Cl)cc2)c1 (centres unmarked): 62.4%
Cc1ccc(OC(C)C)c(CN(CCO)CCO)c1: 78.1%
Clc1ccccc1C1(c2ccnc(C3CCCC3)n2)CCNCC1: 39.4%
Cc1cc2c(cc3c(NCc4ccccc4F)nnc(C)n32)s1: 20.1%
Cc1nn(C)cc1-c1cc(-c2cn(C)nc2C)n(CC(=O)N(C)Cc2ccn(C)n2)n1: > 100%
COC(=O)C1(C(=O)OC)C(CC(=O)c2ccc(Br)cc2)c2cc(N(C)C)ccc2C(c2ccccc2)N1S(=O)(=O)c1ccc(C)cc1 (centres unmarked): 42.2%
Cc1ccc2[nH]c3nc(N/N=C/c4cc5c(cc4Cl)OCO5)nnc3c2c1: 67.4%
COc1ccc(C)cc1N(C)C(=O)c1cc2ccc3cccnc3c2[nH]1: 0.306%
COC(=O)[C@@H](OC(C)(C)C)c1c(C)nc2c(c1Cl)CCN(Cc1ccc(OC)cc1)C2=O: 35.4%
Cc1ccc(C2(c3ccccc3)C=C(c3ccccc3)N(S(=O)(=O)c3ccc(C)cc3)O2)cc1 (centres unmarked): 0.575%

Study 2
Cell line: mouse MPNST tumor cells
Technique: high-content immunofluorescence imaging
Measured: nuclear SOX9
Concentration: 10 µM
Time: 12 h
Notes: mean of 2 replicates
Reference: DMSO control
Direction: higher = more nuclear SOX9
Measurement: nuclear SOX9 intensity
O=C(Nc1cc(C(F)(F)F)ccc1O)Nc1cc(C(F)(F)F)ccc1O: 103 % of DMSO
CCCCC(C)(O)C/C=C/[C@H]1[C@H](O)CC(=O)[C@@H]1CCCCCCC(=O)OC (mixture of isomers): 102 % of DMSO
Cc1cccc(C)c1OCC(C)N (centres unmarked): 97.5 % of DMSO and 103 % of DMSO
COc1cc(N2CCC(O)CC2)ccc1Nc1cc(Nc2ccccc2S(=O)(=O)C(C)C)c2cc[nH]c2n1: 109 % of DMSO
Cc1ccc2c(=O)c3cccc(CC(=O)O)c3oc2c1C: 96.4 % of DMSO
Cc1cc2c(cc1C1(c3ccc(C(=O)O)cn3)CC1)C(C)(C)CCC2(C)C: 93.8 % of DMSO
CCn1cc(-c2cccc(C(F)(F)F)c2)c2sc(C(=N)NC3CCS(=O)(=O)CC3)cc2c1=O: 139 % of DMSO and 176 % of DMSO
CN1CCN(C(c2ccccc2)c2ccccc2)CC1: 109 % of DMSO
Nc1ncnc2c1c(COc1cccc(Cl)c1)nn2C1CCOCC1: 94.2 % of DMSO
Nc1nc2c(cnn2CCc2ccccc2)c2nc(-c3ccco3)nn12: 137 % of DMSO
O=C1COc2nccc(-c3ccccc3F)c2CN1Cc1cc(C(F)(F)F)cc(C(F)(F)F)c1: 111 % of DMSO

Study 3
SMILES: CS(=O)(=O)N1CCCC(NC(=O)[C@H](CCC2CCCCC2)NC(=O)c2ccc(CNC(=O)c3cnc4ccccn34)cc2)C1 (some centres unmarked)
Read-out: cell-free assay
Technique: competition with immobilised ligand
Concentration: 0.1 µM
Measurement: remaining binding
Serine/threonine-protein kinase pim-2 (PIM2, Homo sapiens, UniProt Q9P1W9): 100%
Mast/stem cell growth factor receptor Kit (KIT, Homo sapiens, UniProt P10721, V559D/V654A): 100%
Mast/stem cell growth factor receptor Kit (KIT, Homo sapiens, UniProt P10721): 63%
Glycogen synthase kinase-3 beta (GSK3B, Homo sapiens, UniProt P49841): 100%
Serine/threonine-protein kinase MRCK beta (CDC42BPB, Homo sapiens, UniProt Q9Y5S2): 100%
Ribosomal protein S6 kinase alpha-6, C-terminal kinase domain (RPS6KA6, Homo sapiens, UniProt Q9UK32): 82%
Macrophage-stimulating protein receptor (MST1R, Homo sapiens, UniProt Q04912): 100%
Mast/stem cell growth factor receptor Kit (KIT, Homo sapiens, UniProt P10721, T670I/V559D): 77%
Epidermal growth factor receptor (EGFR, Homo sapiens, UniProt P00533, del747-752/P753S): 99%
Activin receptor type-1B (ACVR1B, Homo sapiens, UniProt P36896): 96%
Serine/threonine-protein kinase NLK (NLK, Homo sapiens, UniProt Q9UBE8): 100%
TGF-beta receptor type-2 (TGFBR2, Homo sapiens, UniProt P37173): 91%
cAMP-dependent protein kinase catalytic subunit PRKX (PRKX, Homo sapiens, UniProt P51817): 65%
Homeodomain-interacting protein kinase 2 (HIPK2, Homo sapiens, UniProt Q9H2X6): 100%
Tyrosine-protein kinase ABL1, phosphorylated (ABL1, Homo sapiens, UniProt P00519, M351T): 100%

Study 4
SMILES: Cc1ccc(S(=O)(=O)/C=C/C#N)cc1
Read-out: enzyme activity
Mode: inhibitor
Concentration: 0.5 µM
Reference: control
Measurement: remaining activity
Receptor-type tyrosine-protein kinase FLT3 (FLT3, Homo sapiens, UniProt P36888): 100%
Ephrin type-A receptor 7 (EPHA7, Homo sapiens, UniProt Q15375): 99.8%
Fibroblast growth factor receptor 4 (FGFR4, Homo sapiens, UniProt P22455): 94.3%
Beta-adrenergic receptor kinase 1 (GRK2, Homo sapiens, UniProt P25098): 102%
SRSF protein kinase 3 (SRPK3, Homo sapiens, UniProt Q9UPE1): 104%
G protein-coupled receptor kinase 6 (GRK6, Homo sapiens, UniProt P43250): 112%
Ribosomal protein S6 kinase alpha-1 (RPS6KA1, Homo sapiens, UniProt Q15418): 91.6%
Protein kinase C epsilon type (PRKCE, Homo sapiens, UniProt Q02156): 106%
Aurora kinase C (AURKC, Homo sapiens, UniProt Q9UQB9): 97.1%
Ephrin type-B receptor 2 (EPHB2, Homo sapiens, UniProt P29323): 104%
Ribosomal protein S6 kinase beta-1 (RPS6KB1, Homo sapiens, UniProt P23443): 105%
NUAK family SNF1-like kinase 1 (NUAK1, Homo sapiens, UniProt O60285): 101%

Some of these lines once more (study 4):
Ephrin type-B receptor 2 (EPHB2, Homo sapiens, UniProt P29323): 104%
NUAK family SNF1-like kinase 1 (NUAK1, Homo sapiens, UniProt O60285): 101%
Fibroblast growth factor receptor 4 (FGFR4, Homo sapiens, UniProt P22455): 94.3%
Ribosomal protein S6 kinase beta-1 (RPS6KB1, Homo sapiens, UniProt P23443): 105%
